Measurements collected from several papers.
Protocols differ between the studies behind these lines. ± marks the error that the study gave.

SMILES | assay | system | setting | clearance
COc1ccc(C(O)COc2ccc(-c3csc(-c4ccc(OCC(O)c5ccc(OC)c(OC)c5)cc4)n3)cc2)cc1OC (centres unmarked) |  | mouse C57BL/6J, plasma | intravenous, 3 mg/kg | 10.5 mL/min/kg
O=c1c2cc(Cl)c(CO)cc2[nH]c(=S)n1Cc1cccnc1 |  | mouse, plasma | intravenous | 34.8 mL/min/kg
C=CC(=O)Nc1cc(Nc2nccc(-c3c[nH]c4ccccc34)n2)c(OC)cc1N(C)CCN(C)C |  | NSG mouse, plasma | population PK model, added: ABT | 73.2 mL/min/kg
CC(=O)N(C)C1CCN(c2cc(F)cc(NC(=O)c3cc4c(F)ccc(C)c4[nH]3)c2)C1 (centres unmarked) |  | CD1 mouse | intravenous, 1 mg/kg | 24.2 mL/min/kg
CC[C@H](C)[C@@H]1NC(=O)[C@@](C)(NC(=O)[C@H](CCCNC(=N)N)NC(=O)[C@H](CC(C)C)NC(=O)[C@@H](NC(=O)[C@H](CCC(N)=O)NC(=O)[C@H](CC(C)C)NC(C)=O)[C@@H](C)O)CCCC=CCCC[C@@](C)(C(=O)N[C@@H](CC(C)C)C(=O)N[C@@H](Cc2ccc3ccccc3c2)C(N)=O)NC(=O)[C@H](CCCNC(=N)N)NC(=O)[C@H](CCC(N)=O)NC1=O |  | BALB/c mouse, plasma | ip, 5 mg/kg | 1 mL/min/kg
CN(C)c1ccc(Nc2nc(-c3ccncc3)nc3c2CC(N)CC3)cc1 (centres unmarked) |  | male C57BL/6J mouse, plasma | intraperitoneal, 10 mg/kg | 120 mL/min/kg
NCc1ccc(-c2nn(Cc3ccccc3)c3ccccc23)o1 |  | male CD1 mouse, plasma | intravenous, 5 mg/kg | 67.1 mL/min/kg
C=CC(=O)Nc1cc(Nc2nccc(Nc3cc(Cl)c(F)cc3C(C)(C)O)n2)c(OC)cc1N1CC[C@@H](N(C)C)C1 | two-compartment PK model | mouse |  | 7.33 mL/min
OCc1ccc(-c2nn(Cc3ccccc3)c3ccccc23)o1 |  | male CD1 mouse, plasma | intravenous, 5 mg/kg | 77.9 mL/min/kg
C[C@@H]1CN(Cc2ncccn2)C[C@H]1c1nc2c(cnn2C2CCOCC2)c(=O)[nH]1 |  | mouse, blood | intravenous, 0.3 mg/kg | 61.7 mL/min/kg
C=C1CN2CCC[C@@]2(COc2nc(N3CCN(C(=O)/C=C/c4cccc5c4CNCC5)C[C@@H]3C)c3cc(Cl)c(-c4nc(N)cc(C)c4C(F)(F)F)c(F)c3n2)C1 |  | female CD-1 mouse, whole blood | intravenous, 1 mg/kg, DMSO 10%, PEG400 35%, water 55% | 3.4 mL/min/kg
CCCc1cc(C(=O)OC)c(NC(=O)C2CCN(C(C)=O)CC2)s1 |  | CD1 mouse, male, plasma | intravenous, 1 mg/kg | 438 ± 37 mL/min/kg
CCOC(=O)C1=C(CN2CCC[C@@H]2C(=O)Nc2ccc(B(O)O)cc2)NC(c2nccs2)=N[C@H]1c1ccc(F)cc1Br |  | ICR mouse, plasma | intravenous, 2 mg/kg | 46.8 ± 6.63 mL/min/kg
C=CC(=O)Nc1cc(Nc2ncc(C(=O)OC(C)C)c(-c3cn(C)c4ccccc34)n2)c(OC)cc1N(C)CCN(C)C | two-compartment PK model | mouse |  | 443 mL/min

For quick reference, copied from above:
SMILES | assay | system | setting | clearance
NCc1ccc(-c2nn(Cc3ccccc3)c3ccccc23)o1 |  | male CD1 mouse, plasma | intravenous, 5 mg/kg | 67.1 mL/min/kg
